Published values from different studies.
Each line is one published result; not all experiments were run side by side. Values joined by “and” are separate records of one study, mostly repeats; a detail may differ. Numbers after ± are the reported error.

| SMILES | method | host | matrix | route | dose | time | tissue uptake |
| --- | --- | --- | --- | --- | --- | --- | --- |
| O=C([O-])CN1CCN(CC(=O)[O-])CCN(CC(=O)NC[C@H]2CC[C@H](C(=O)N[C@H](Cc3cnc4ccccc4c3)C(=O)NCCCC[C@H](NC(=O)N[C@@H](CCC(=O)O)C(=O)O)C(=O)O)CC2)CCN(CC(=O)[O-])CC1.[64Cu+2] | ex vivo gamma counting | 22Rv1 tumour-bearing mice | heart | intravenous | 0.74 MBq | 1 h post-injection | 3.72 %ID/g |
| COc1ccc2c(c1)C(C)(C)C(/C=C/C1=C(Oc3ccc(C(=O)NCCCCOc4cc(CN(Cc5ccccn5)Cc5ccccn5)cc(CN(Cc5ccccn5)Cc5ccccn5)c4)cc3)C(=C/C=C3/N(CCCCS(=O)(=O)[O-])c4ccc(OC)cc4C3(C)C)CCC1)=[N+]2CCCCS(=O)(=O)[O-].O=[N+]([O-])[O-].O=[N+]([O-])[O-].[99Tc+].[C-]#[O+].[C-]#[O+].[C-]#[O+].[Zn+2] |  | BALB/c mouse, Staphylococcus aureus myositis | pancreas |  |  | 12 h | 1.35 %ID/g and 1.51 %ID/g and 1.58 %ID/g and 0.42 %ID/g |
| [11CH3]N1CCC(NC(=O)c2cc(-c3c(O)cc(O)cc3Oc3ccc([N+](=O)[O-])cc3)on2)CC1 |  | Wistar rat, female, healthy | lungs | intravenous |  | 10 min | 1 ± 0.3 %ID |
| COc1ccc(Nc2nc(Nc3ccc(OCCOCCOCC[18F])cc3)ncc2Br)cc1 |  | ICR mice, S180 tumour-bearing | muscle | intravenous | 370 kBq | 15 min | 2.55 ± 0.23 %ID/g |
| [123I]c1ccc2nc(-c3ccc(-n4ccnn4)nc3)cn2c1 |  | Wistar rat | heart | intravenous |  | 24 h | not detected |
| Cc1cc(C)n(CCN(CCN)CCCCCCNC(=O)[C@@H](N)Cc2c[nH]cn2)n1.[99Tc+].[C-]#[O+].[C-]#[O+].[C-]#[O+] |  | BALB/c nude mice, A549 xenograft | heart | intravenous |  | 15 min | 1.23 ± 0.16 %IA/g |
| CN(Cc1ccccc1)C(=O)CN1CCN(CC(=O)[O-])CCN(Cc2cccc(C(=O)[O-])n2)CC1.[18F-].[Sc+3] |  | BALB/c mouse | small intestine | intravenous |  | 1 h | 0.6 ± 0.11 %ID/g |
| CC(C)C[C@H](NC(=O)[C@@H](CCCCNC(=O)[C@@H](Cc1ccccc1)NC(=O)CCCCCCCNC(=O)CN1CCN(CC(=O)O)CCN(CC(=O)O)CCN(CC(=O)O)CC1)NC(=O)[C@H](Cc1ccc(O)cc1)NC(=O)[C@H](CO)NC(=O)[C@H](Cc1c[nH]c2ccccc12)NC(=O)[C@H](Cc1c[nH]cn1)NC(=O)[C@@H]1CCC(=O)N1)C(=O)N[C@@H](CCCNC(=N)N)C(=O)N1CCC[C@H]1C(=O)NCC(N)=O [indium-111 labelled] | biodistribution | male athymic nude mice, DU-145 prostate cancer xenograft | pancreas | intravenous | 0.037 MBq | 2 h post-injection | 0.16 ± 0.08 %ID/g |
| O=C(NCC1OC2CCC=CCCC2O1)c1ccc([18F])nc1 (stereo not drawn) |  | healthy female BALB/c nude mice | bladder | intravenous | 7.4 MBq per mouse | 120 min | 2.1 ± 2.1 %ID/g |

Excerpt of the above:
| SMILES | method | host | matrix | route | dose | time | tissue uptake |
| --- | --- | --- | --- | --- | --- | --- | --- |
| Cc1cc(C)n(CCN(CCN)CCCCCCNC(=O)[C@@H](N)Cc2c[nH]cn2)n1.[99Tc+].[C-]#[O+].[C-]#[O+].[C-]#[O+] |  | BALB/c nude mice, A549 xenograft | heart | intravenous |  | 15 min | 1.23 ± 0.16 %IA/g |
